Results collected from several papers.
Lines come from different studies, so protocols differ. ± gives the spread as reported. Converted amounts (≈) assume the structure as drawn.
ALB: Albumin (ALB, Bos taurus, UniProt P02769)
Sequence of UniProt P02769 (whole entry, looked up): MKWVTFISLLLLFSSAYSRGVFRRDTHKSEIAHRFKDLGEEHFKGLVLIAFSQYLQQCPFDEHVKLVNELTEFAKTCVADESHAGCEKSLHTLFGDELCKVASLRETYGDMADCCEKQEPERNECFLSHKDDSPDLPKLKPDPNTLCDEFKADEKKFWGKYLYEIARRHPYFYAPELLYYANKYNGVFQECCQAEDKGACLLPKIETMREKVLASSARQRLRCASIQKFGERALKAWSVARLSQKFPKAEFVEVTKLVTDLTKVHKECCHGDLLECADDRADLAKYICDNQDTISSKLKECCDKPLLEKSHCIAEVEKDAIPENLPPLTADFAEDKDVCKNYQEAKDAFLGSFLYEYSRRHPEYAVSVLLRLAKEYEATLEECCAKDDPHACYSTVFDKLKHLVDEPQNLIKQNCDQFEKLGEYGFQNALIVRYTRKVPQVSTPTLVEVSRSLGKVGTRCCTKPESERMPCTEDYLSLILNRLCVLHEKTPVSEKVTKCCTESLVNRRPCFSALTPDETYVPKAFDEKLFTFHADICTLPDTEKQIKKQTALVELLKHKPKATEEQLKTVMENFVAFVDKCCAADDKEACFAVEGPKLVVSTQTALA
gdpP residues 84-659: gdpP, residues 84-659 (Bacillus subtilis, UniProt P37484)
Sequence of UniProt P37484 (84-659, looked up): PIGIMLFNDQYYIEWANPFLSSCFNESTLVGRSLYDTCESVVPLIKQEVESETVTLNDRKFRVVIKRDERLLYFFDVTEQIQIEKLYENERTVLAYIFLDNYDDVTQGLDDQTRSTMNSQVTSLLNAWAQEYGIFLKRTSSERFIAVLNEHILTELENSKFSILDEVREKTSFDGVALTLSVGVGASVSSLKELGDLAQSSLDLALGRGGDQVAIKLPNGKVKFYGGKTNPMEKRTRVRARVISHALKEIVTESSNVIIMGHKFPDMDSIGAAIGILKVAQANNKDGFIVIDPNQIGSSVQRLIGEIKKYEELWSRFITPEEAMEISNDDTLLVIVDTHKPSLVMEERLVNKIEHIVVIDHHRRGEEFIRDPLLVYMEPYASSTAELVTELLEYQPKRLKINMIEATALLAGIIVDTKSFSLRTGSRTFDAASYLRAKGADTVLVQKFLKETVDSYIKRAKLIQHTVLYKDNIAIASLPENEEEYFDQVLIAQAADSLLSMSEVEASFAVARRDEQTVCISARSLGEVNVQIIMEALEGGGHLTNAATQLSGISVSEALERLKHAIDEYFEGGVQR
Alpha-amylase: Alpha-amylase (Bacillus subtilis, UniProt P00691)
Sequence of UniProt P00691 (whole entry, looked up): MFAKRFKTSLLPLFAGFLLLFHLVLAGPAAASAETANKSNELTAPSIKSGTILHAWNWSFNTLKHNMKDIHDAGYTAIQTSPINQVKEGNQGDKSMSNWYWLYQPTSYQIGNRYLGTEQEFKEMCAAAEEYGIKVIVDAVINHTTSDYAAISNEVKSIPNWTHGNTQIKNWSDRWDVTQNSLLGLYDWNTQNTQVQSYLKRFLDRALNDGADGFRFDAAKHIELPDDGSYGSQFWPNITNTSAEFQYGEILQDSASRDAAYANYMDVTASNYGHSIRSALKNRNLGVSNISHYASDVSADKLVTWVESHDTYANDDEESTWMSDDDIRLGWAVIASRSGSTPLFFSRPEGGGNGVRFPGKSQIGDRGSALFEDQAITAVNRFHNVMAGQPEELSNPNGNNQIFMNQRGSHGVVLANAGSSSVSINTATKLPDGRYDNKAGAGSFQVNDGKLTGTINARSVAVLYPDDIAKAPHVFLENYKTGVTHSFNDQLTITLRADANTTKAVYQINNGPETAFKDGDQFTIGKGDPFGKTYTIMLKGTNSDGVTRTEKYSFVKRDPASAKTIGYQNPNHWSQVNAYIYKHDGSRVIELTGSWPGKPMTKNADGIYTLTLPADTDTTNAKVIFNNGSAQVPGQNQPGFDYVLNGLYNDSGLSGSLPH
Sequence of UniProt A0A109QYD3 (whole entry, looked up): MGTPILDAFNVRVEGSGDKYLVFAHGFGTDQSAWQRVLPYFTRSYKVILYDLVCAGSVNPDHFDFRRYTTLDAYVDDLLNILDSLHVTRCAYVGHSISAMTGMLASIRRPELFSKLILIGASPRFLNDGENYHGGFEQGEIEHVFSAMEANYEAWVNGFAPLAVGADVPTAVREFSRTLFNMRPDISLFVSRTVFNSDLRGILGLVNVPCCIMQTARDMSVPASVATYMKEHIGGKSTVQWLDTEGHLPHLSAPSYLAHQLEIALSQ
Sequence of UniProt Q9VNB5 (whole entry, looked up): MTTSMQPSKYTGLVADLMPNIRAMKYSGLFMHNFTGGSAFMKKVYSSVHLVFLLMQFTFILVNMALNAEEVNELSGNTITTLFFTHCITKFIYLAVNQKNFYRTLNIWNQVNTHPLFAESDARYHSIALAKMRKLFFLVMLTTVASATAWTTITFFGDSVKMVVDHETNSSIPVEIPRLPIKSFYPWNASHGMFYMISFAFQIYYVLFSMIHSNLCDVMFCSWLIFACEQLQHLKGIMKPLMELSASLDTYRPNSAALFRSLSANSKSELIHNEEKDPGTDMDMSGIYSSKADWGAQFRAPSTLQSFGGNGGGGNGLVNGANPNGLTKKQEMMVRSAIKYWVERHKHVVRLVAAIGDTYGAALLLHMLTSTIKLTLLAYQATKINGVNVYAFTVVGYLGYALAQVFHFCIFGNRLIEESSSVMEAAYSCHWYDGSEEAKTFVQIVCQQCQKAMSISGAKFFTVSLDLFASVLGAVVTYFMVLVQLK
Sequence of UniProt Q9Y4K0 (whole entry, looked up): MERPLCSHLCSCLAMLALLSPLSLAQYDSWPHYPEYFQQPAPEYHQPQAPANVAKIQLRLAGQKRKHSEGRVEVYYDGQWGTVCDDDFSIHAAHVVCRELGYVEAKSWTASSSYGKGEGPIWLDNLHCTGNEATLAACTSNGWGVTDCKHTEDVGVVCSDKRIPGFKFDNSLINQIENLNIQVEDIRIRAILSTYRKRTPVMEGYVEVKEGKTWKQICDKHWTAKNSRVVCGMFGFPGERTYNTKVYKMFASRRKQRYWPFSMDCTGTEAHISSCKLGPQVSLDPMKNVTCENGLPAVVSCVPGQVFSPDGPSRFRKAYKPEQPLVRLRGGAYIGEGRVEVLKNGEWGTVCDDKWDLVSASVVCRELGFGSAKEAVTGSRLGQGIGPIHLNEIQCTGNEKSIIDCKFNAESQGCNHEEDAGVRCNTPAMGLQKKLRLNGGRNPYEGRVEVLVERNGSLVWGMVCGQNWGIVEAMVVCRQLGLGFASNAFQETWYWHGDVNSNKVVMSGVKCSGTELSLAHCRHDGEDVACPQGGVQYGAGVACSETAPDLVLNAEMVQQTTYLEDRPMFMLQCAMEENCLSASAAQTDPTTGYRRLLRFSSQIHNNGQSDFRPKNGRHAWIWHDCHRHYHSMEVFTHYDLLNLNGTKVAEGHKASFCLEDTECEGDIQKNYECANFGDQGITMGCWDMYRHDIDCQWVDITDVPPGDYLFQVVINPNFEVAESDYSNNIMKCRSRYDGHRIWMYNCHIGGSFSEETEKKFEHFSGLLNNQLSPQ
Sequence of UniProt P09958 (whole entry, looked up): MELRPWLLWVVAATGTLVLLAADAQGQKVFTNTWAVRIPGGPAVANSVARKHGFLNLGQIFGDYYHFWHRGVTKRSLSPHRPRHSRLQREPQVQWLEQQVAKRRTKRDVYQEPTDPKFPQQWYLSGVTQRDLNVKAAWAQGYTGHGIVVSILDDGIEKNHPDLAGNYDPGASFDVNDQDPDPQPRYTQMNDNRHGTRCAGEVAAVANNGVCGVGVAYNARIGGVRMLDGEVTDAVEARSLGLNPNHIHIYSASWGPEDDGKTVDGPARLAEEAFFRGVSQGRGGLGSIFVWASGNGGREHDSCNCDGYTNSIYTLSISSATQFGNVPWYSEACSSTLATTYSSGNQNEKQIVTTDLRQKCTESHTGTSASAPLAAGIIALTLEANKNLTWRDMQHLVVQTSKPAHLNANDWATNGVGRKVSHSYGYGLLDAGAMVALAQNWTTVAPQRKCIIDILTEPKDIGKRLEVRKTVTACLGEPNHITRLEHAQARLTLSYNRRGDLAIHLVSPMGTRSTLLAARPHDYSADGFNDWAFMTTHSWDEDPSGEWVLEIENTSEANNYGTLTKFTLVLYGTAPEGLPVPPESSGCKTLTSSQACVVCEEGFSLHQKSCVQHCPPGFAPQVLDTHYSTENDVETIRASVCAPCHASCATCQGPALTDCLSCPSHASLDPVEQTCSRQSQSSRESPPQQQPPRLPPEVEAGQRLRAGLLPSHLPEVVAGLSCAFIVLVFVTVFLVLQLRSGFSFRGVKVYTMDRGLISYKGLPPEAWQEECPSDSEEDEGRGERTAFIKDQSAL
Sequence of UniProt Q13153 (whole entry, looked up): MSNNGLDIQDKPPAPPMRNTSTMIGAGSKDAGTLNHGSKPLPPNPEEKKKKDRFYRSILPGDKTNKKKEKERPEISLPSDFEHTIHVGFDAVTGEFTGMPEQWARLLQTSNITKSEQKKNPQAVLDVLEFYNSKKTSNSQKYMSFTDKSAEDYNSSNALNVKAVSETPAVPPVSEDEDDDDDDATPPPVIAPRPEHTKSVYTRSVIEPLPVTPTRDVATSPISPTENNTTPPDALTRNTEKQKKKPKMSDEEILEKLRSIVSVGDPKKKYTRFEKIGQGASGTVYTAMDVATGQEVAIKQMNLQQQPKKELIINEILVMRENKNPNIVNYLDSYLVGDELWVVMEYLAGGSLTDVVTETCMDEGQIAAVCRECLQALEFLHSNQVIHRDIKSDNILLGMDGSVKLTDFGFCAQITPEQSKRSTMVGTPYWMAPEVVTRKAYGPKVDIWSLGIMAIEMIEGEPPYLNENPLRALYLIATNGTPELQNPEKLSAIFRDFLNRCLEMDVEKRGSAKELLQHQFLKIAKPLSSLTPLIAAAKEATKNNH
Sequence of UniProt Q9Y478 (whole entry, looked up): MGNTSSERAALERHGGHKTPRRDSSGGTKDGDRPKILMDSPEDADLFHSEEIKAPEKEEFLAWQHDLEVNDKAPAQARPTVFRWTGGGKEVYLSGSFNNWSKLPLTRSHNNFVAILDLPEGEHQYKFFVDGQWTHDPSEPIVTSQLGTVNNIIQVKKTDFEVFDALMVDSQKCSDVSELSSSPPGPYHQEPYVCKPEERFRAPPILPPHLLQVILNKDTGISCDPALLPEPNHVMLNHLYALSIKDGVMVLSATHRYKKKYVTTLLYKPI

CS(C)(=O)=Nc1ccc(-c2ccc(-c3nc4cc(O[C@@H]5CO[C@H]6[C@@H]5OC[C@H]6O)[nH]c4cc3F)cc2)cc1  EC150 (PRKAA2/PRKAB1, with gamma2 (Homo sapiens, UniProt P54646+Q9Y478); enzyme activity, activator; 60 min, 50% above basal activity, with: ATP 50 µM): 0.252 nM
O=C(O)COc1ccc(Cl)cc1  off-rate constant (Chloride channel protein (Torpedo marmorata, UniProt P21564, C212S); open channel block, noise analysis; -140 mV): 490 s⁻¹
C[C@H](NC(=O)[C@H](CCC(N)=O)NC(=O)[C@H](CCCCN)NC(=O)[C@H](C)NC(=O)[C@@H]1CCCN1C(=O)[C@H](C)NC(=O)[C@H](CCCCN)NC(=O)[C@H](CCC(N)=O)NC(=O)[C@H](C)NC(=O)[C@H](CCCCN)NC(=O)[C@H](CCC(N)=O)NC(=O)[C@@H]1CCCN1C(=O)[C@H](CCC(N)=O)NC(=O)[C@H](CCCCN)NC(=O)[C@H](C)NC(=O)[C@H](CCC(N)=O)NC(=O)[C@H](CCCCN)NC(=O)[C@H](C)NC(=O)[C@@H]1CCCN1C(=O)[C@H](C)NC(=O)[C@H](CCCCN)NC(=O)[C@H](CCC(N)=O)NC(=O)[C@H](C)NC(=O)[C@H](CCCCN)NC(=O)[C@H](CO)NC(=O)[C@H](Cc1ccc(O)cc1)NC(=O)CNC(=O)CNC(=O)CN)C(=O)N[C@@H](CCCCN)C(=O)N[C@@H](CCC(N)=O)C(=O)O  Kd (binding, SPR Langmuir fit; rVλ6Wil fibrils; pH 7.4): 25 nM
CC1CN1c1cc(O)c2nc(N)sc2c1 (stereo not shown)  thermal shift (Histone-lysine N-methyltransferase, H3 lysine-36 specific, SET domain (NSD1, Homo sapiens, UniProt Q96L73); HiBiT CETSA; HEK293T; 5 µM, 24 h, SET domain; baseline: DMSO): ~4 °C
O=C(Nc1cccc(-c2nn[nH]n2)c1)c1cc(-c2nn[nH]n2)cc(C(F)(F)F)c1  Kd/Ki ratio (Beta-lactamase CTX-M-14 (Escherichia coli, UniProt Q9L5C7); baseline: Kd over Ki): > 3 fold
CCN(Cc1ccccc1)C(=O)CCc1nc(CN2CCN(C(=O)Cc3ccc(OC)c(OC)c3)CC2)no1  current density (Sodium channel protein type 11 subunit alpha (Scn11a, Rattus norvegicus, UniProt O88457); sodium current, inhibitor, whole-cell patch clamp; rat DRG neurons; 30 nM, at -40 mV): -14.6 ± 1.19 pA/pF
CC(=O)NC(Cc1ccc(Br)c(Cl)c1)C(=O)N[C@@H](C)C(=O)N1CCC[C@H]1C(=O)N1CCC[C@H]1C(=O)N[C@@H](CCC(=O)O)C(=O)N[C@@H](Cc1c[nH]cn1)C(=O)N[C@@H](CO)C(=O)N[C@H](C(=O)N[C@@H](C)C(N)=O)[C@@H](C)OP(=O)(O)O (stereo partly shown)  inhibition (BDNF/NT-3 growth factors receptor (NTRK2, Homo sapiens, UniProt Q16620); cell-free assay, inhibitor; 10 µM): 2.24%
NC(=NN=Cc1cccs1)[S][Ru+]([Cl])([P](c1ccccc1)(c1ccccc1)c1ccccc1)[P](c1ccccc1)(c1ccccc1)c1ccccc1.[Cl-]  Stern-Volmer constant (ALB; fluorescence quenching): 80400 M⁻¹
CC[C@H](C)[C@H](NC(=O)[C@H](Cc1ccccc1)NC(=O)[C@@H]1CCCN1C(=O)[C@H](CCCCN)NC(=O)[C@H](CCCCN)NC(=O)[C@H](Cc1ccccc1)NC(=O)[C@H](Cc1ccccc1)NC(=O)[C@@H](C)NC(=O)[C@@H](N)Cc1ccc(O)cc1)C(=O)N[C@@H](CC(C)C)C(=O)O  Emax (Neurotensin receptor type 1 (Ntsr1, Rattus norvegicus, UniProt P20789); GTPγS binding, agonist, radiometric; cell membranes): 104%
Cc1cc(S(=O)(=O)Nc2ncccn2)c(F)cc1N(C)C1CCN([C@H](C)c2ccccc2)CC1  kon (Sodium channel protein type 8 subunit alpha (SCN8A, Homo sapiens, UniProt Q9UQD0); ion current, inhibitor, patch clamp; held at V0.5): 44500 M⁻¹ s⁻¹
N=C(N)SCc1ccc(B(O)O)cc1  IC50 (Furin (FURIN, Homo sapiens, UniProt P09958); enzyme activity, inhibitor; up to 10 µM, with: pERTKR-AMC 5 µM): inactive
C=Cc1ccc(NC(=O)CSc2nnc(-c3cccnc3)n2CC)cc1  efficacy (Orco (Drosophila melanogaster, UniProt Q9VNB5); calcium mobilization, agonist; HEK293 expressing Orco; baseline: VUAA1 maximum): 57%
CC(=O)N[C@@H](Cc1c[nH]c2ccccc12)C(=O)N[C@@H](CCC(=O)O)C(=O)N[C@@H](Cc1c[nH]cn1)C(=O)N[C@@H](CC(=O)O)C(=O)Nc1ccc2c(C)cc(=O)oc2c1  Vmax (Caspase-4 (CASP4, Homo sapiens, UniProt P49662); substrate cleavage, substrate, fluorogenic AMC release; enzyme 0.25 activity units/µL): 6570 ± 588 RFU/min
Nc1ncnc2c1ncn2[C@@H]1O[C@H](COP(=O)(O)OP(=O)(O)OC[C@H]2O[C@@H](O)[C@H](O)[C@@H]2O)[C@@H](O)[C@H]1O  -T*ΔS (Protein mono-ADP-ribosyltransferase PARP14, macrodomain 2 (PARP14, Homo sapiens, UniProt Q460N5); binding): 1.73 kcal/mol
N=C(N)NCCC[C@@H]1NC(=O)[C@H](CCCCNC(=O)CC[C@H](NC(=O)CCOCCOCCOCCOCCNC(=O)CC[C@H](NC(=O)CN2CCN(CC(=O)O)CCN(CC(=O)O)CCN(CC(=O)O)CC2)C(=O)NCCOCCOCCOCCOCCC(=O)N[C@@H](CCC(=O)NCCCC[C@@H]2NC(=O)[C@@H](Cc3ccccc3)NC(=O)[C@H](CC(=O)O)NC(=O)CNC(=O)[C@H](CCCNC(=N)N)NC2=O)C(=O)NCCCC[C@@H]2NC(=O)[C@@H](Cc3ccccc3)NC(=O)[C@H](CC(=O)O)NC(=O)CNC(=O)[C@H](CCCNC(=N)N)NC2=O)C(=O)NCCCC[C@@H]2NC(=O)[C@@H](Cc3ccccc3)NC(=O)[C@H](CC(=O)O)NC(=O)CNC(=O)[C@H](CCCNC(=N)N)NC2=O)NC(=O)[C@@H](Cc2ccccc2)NC(=O)[C@H](CC(=O)O)NC(=O)CNC1=O [indium-111 labelled]  tissue uptake (female athymic nude mice, muscle; intravenous, 3 µCi, 0.5 h, U-87 MG glioma xenograft): 0.93 ± 0.29 %ID/g
Cn1cc(-c2cccc(CN3CCC4(CC3)COc3c4ccc4c3CN([C@H]3CCC(=O)NC3=O)C4=O)c2)cn1  time to maximal degradation (CRBN/Zinc finger protein Helios (Homo sapiens, UniProt Q96SW2+Q9UKS7); degrader; HEK293, HiBiT-tagged Helios; concentration not given): ≤ 3 h
Nc1ncnc2c1ccn2[C@@H]1O[C@@H]2COP(=O)(O)O[C@H]3[C@@H](O)[C@H](n4ccc5c(N)ncnc54)O[C@@H]3COP(=O)(O)O[C@H]2[C@H]1O  hydrolysis rate fold decrease (gdpP residues 84-659; HPLC; concentration not given; baseline: c-di-AMP, higher = slower hydrolysis): 1.8
O=C(Nc1cccc(-c2nc3ncccc3o2)c1)c1cccc(F)c1  IC50 ratio (Nucleoside transporter 1 (Plasmodium vivax, UniProt A5K8B0, D23E); adenosine uptake, inhibitor; D23E mutant; baseline: D23E mutant over wild type): ~3.5 fold
CC(C)C[C@@H]1NC(=O)[C@H](Cc2ccc(O)cc2)NC(=O)CNC(=O)[C@H](CO)NC(=O)[C@H](Cc2ccccc2)NC(=O)[C@H](CCCCN)NC(=O)[C@H](CC(N)=O)NC(=O)[C@H](Cc2ccc(O)cc2)NC(=O)CSC[C@@H](C(=O)NCC(N)=O)NC(=O)CNC(=O)[C@@H]2CCCN2C(=O)[C@H](CCCNC(=N)N)NC1=O  protein interaction inhibition (Epidermal growth factor receptor, with EGF (EGFR, Homo sapiens, UniProt P00533); inhibitor, AlphaLISA; concentration not given): inactive
O=C(Nc1cccc(-c2nn[nH]n2)c1)c1cc(-c2ccccn2)cc(C(F)(F)F)c1  Kd/Ki difference (CTX-M-27 beta-lactamase; surface plasmon resonance): 2 to 3 fold
O=C([N-]c1nc2ccccc2s1)c1cnccn1.[Cl-].[Ru+2].c1ccc(P(c2ccccc2)c2ccccc2)cc1.c1ccc(P(c2ccccc2)c2ccccc2)cc1  number of binding sites (ALB; tryptophan fluorescence quenching; concentration not given): 0.85
CSCC[C@@H]1NC(=O)[C@H](Cc2c[nH]c3ccccc23)NC(=O)[C@H](CCCNC(=N)N)NC(=O)[C@H](Cc2c[nH]c3ccccc23)NC(=O)[C@H](CCCNC(=N)N)NC(=O)[C@H](C)NC(=O)[C@@H](NC(=O)[C@@H](N)C(C)C)CSCC(=NOCC(=O)NCP(=O)(Oc2ccccc2)Oc2ccccc2)CSC[C@@H](C(=O)NCC(N)=O)NC(=O)[C@@H]2CCCN2C1=O  kinact/KI (Fluorophosphonate-binding serine hydrolase F (Staphylococcus aureus, UniProt Q2FUY3); covalent inhibitor; Fluorophosphonate-binding serine hydrolase F 100 nM): 27000 ± 840 M⁻¹ s⁻¹
Cc1ccc2c(n1)c(-c1cccc(S(C)(=O)=O)c1)c(C)n2C/C(F)=C/CN  peak inhibition (Lysyl oxidase homolog 2 (LOXL2, Homo sapiens, UniProt Q9Y4K0); inhibitor, activity-based probe; healthy human subjects; oral, 100 mg single dose, 2 h, single ascending dose): > 85%
CC(C)P(=S)(NP(=S)(C(C)C)C(C)C)C(C)C  ΔG of binding (Alpha-amylase; fluorescence quenching; concentration not given, pH 6.8, 310 K): -4.31 kcal/mol
NC1CCc2cc(O)c(O)cc2C1 (stereo not shown)  maximal inhibition (Carbamate kinase (Giardia intestinalis, UniProt A8BB85); enzyme activity, inhibitor, luminescence, ATP detection; Giardia lamblia): 83.2%
c1ccc(CN2CCOCCOCCN(CCCCCCCCCCCCCCN3CCOCCOCCN(CCCCCCCCCCCCCCN4CCOCCOCCN(Cc5ccccc5)CCOCCOCC4)CCOCCOCC3)CCOCCOCC2)cc1  MIC (Quinolone resistance protein NorA (Staphylococcus aureus, UniProt P0A0J7); 1199B; NorA efflux): ~0.008 mM (≈ 10.8 µg/mL)
CN1/C(=C/C=C/C=C/C2=[N+](CCCCCC(=O)NCCCCCCCCN3[C@H]4[C@H](O)[C@@H](O)[C@H](O[C@@H]5OC[C@@H](O)[C@H](O)[C@H]5O)C[C@H]43)c3ccccc3C2(C)C)C(C)(C)c2ccccc21 (stereo partly shown)  optimal labelling pH (Exo-1,4-beta-xylosidase xlnD (Aspergillus niger, UniProt O00089); activity-based probe labelling; Aspergillus niger, secretome): ~4.5
O=C1SCCC1NC(C(=O)NCc1ccccc1)C1CC1 (stereo not shown)  Km (Thiosulfate sulfurtransferase (TST, Homo sapiens, UniProt Q16762); activator, refers to: sodium thiosulfate; 34.2 µM, with: KCN 60 mM): 43.9 ± 3.6 mM
O=C(NC1CCSC1=O)C1CCC1 (stereo not shown)  maximum activation (HTH-type quorum-sensing regulator RhlR (rhlR, Pseudomonas aeruginosa, UniProt P54292); reporter gene, agonist, rhlI-lacZ reporter; Escherichia coli): 110%
N=C(N)NCCC[C@@H]1NC(=O)[C@H](CCCCNC(=O)CNC(=O)CNC(=O)CNC(=O)CC[C@H](NC(=O)CCOCCOCCOCCOCCNC(=O)CC[C@H](NC(=O)CN2CCN(CC(=O)O)CCN(CC(=O)O)CCN(CC(=O)O)CC2)C(=O)NCCOCCOCCOCCOCCC(=O)N[C@@H](CCC(=O)NCC(=O)NCC(=O)NCC(=O)NCCCC[C@@H]2NC(=O)[C@@H](Cc3ccccc3)NC(=O)[C@H](CC(=O)O)NC(=O)CNC(=O)[C@H](CCCNC(=N)N)NC2=O)C(=O)NCC(=O)NCC(=O)NCC(=O)NCCCC[C@@H]2NC(=O)[C@@H](Cc3ccccc3)NC(=O)[C@H](CC(=O)O)NC(=O)CNC(=O)[C@H](CCCNC(=N)N)NC2=O)C(=O)NCC(=O)NCC(=O)NCC(=O)NCCCC[C@@H]2NC(=O)[C@@H](Cc3ccccc3)NC(=O)[C@H](CC(=O)O)NC(=O)CNC(=O)[C@H](CCCNC(=N)N)NC2=O)NC(=O)[C@@H](Cc2ccccc2)NC(=O)[C@H](CC(=O)O)NC(=O)CNC1=O [indium-111 labelled]  excreted dose (athymic nude mouse, female, U-87 MG xenograft, urine; intravenous, dose not given): > 80%
Nc1nc(N)c2ncn([C@@H]3O[C@@H]4COP(=O)(O)O[C@H]5[C@@H](O)[C@H](n6cnc7c(N)ncnc76)O[C@@H]5COP(=O)(O)O[C@H]4[C@H]3O)c2n1  degradation rate (gdpP residues 84-659; substrate, HPLC; 100 µM, 37 °C, upper limit if undegraded 24 h, with: enzyme 1 µM): 1.8 ± 0.3 mol/min/mol enzyme
O=C(c1cccc(-n2cccc2)c1)N1CCCN(S(=O)(=O)c2ccc(F)cc2)CC1  Hill slope (Procathepsin L (CTSL, Homo sapiens, UniProt P07711); FRET): 1.19
Nc1nc2ncc(CNc3ccc(C(=O)N[C@@H](CCC(=O)NCCOCCOCCNC(=O)CN4CCN5CCN(CC4)CC(=O)[O][Al]([18F])[O]C(=O)C5)C(=O)O)cc3)nc2c(=O)[nH]1  binding potential ratio (Folate receptor alpha (FOLR1, Homo sapiens, UniProt P15328); radioligand saturation binding; xenograft homogenates; baseline: KB over CAL-51 xenografts): 22 fold
CC1=C(C)C(Oc2c(F)cc3c(C)cc(=O)oc3c2F)OC1=O (racemic)  K1/2 (RMS3 (Lathyrus oleraceus, UniProt A0A109QYD3); enzyme activity, substrate, DiFMU release; pre-steady state): 0.49 µM
CC(C)P(=S)(NP(=[Se])(C(C)C)C(C)C)C(C)C  maximum emission wavelength (Alpha-amylase; tryptophan fluorescence, fluorescence quenching; 0.20 mg/mL, 298 K): 351 nm
Oc1ccc(O)c2ccccc12  FRET efficiency (Serine/threonine-protein kinase PAK 1, PBD (PAK1, Homo sapiens, UniProt Q13153); HeLa; 20 µM, 1.5 h): decreased
Nc1nc(N)c2ncn([C@@H]3O[C@@H]4COP(=O)(O)O[C@H]5[C@@H](O)[C@H](n6cnc7c(N)nc(N)nc76)O[C@@H]5COP(=O)(O)O[C@H]4[C@H]3O)c2n1  hydrolysis rate fold decrease (gdpP residues 84-659; HPLC; concentration not given; baseline: c-di-AMP, higher = slower hydrolysis): ≥ 4100
